Measured values pooled from the literature.
Each numbered part is a random draw from the data of one study; scales do not carry over between parts.

Series 1
Target: Centromere-binding protein 1, full length, His-tagged (CBF1, Saccharomyces cerevisiae, UniProt P17106, residues 1-351)
Sequence of UniProt P17106 (whole entry, looked up): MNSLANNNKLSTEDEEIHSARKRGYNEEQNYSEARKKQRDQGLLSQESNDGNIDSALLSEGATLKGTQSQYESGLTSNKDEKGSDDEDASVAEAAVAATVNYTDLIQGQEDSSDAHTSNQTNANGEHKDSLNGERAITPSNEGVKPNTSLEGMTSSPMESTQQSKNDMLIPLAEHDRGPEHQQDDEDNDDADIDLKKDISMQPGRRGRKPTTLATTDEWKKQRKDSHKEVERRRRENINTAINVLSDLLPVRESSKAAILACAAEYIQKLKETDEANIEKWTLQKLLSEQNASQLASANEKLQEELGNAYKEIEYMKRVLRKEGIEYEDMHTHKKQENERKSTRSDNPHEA
Technique: competition protein-binding microarray
Molecule type: double-stranded DNA, one strand shown
Sample: in vitro
Tested at: 2 µM
Setting: whole 60-bp probe, lowest competitor level
Added: Pho4 competitor, 0.05 µM
Reading: higher = stronger binding
Shared flanks, not repeated: … GTCTTGATTCGCTTGACGCTGCTG
With `AAATTACTAAGTTGCTGCGTGGGTGACGCCGTATGA` the fluorescence intensity was 78.3 a.u.
`GTAAGAACTCAGCTTCCCGTGAGGATGGTTCTAATG` gave a fluorescence intensity of 69.4 a.u.
For `CTTAAAAGTCTGGAAGGCGTGCTAATTGTCCTTTTA`, the fluorescence intensity was 74.2 a.u.
With `TGCCTCAGTTATGAGCACGTGCTCTGACCTGGCTGC` the fluorescence intensity was 2980 a.u.
The fluorescence intensity of `CTTCTGTAAATTTGTCACTTGACTTGACGCGCCCCG` is reported as 193 a.u.
`TCTTCGTTGTCTACCCACGCTCTTCCGGACCCTCTT` gave a fluorescence intensity of 48.8 a.u.
With `GTTTGATAATGTCAACACGTCATCATAGATGGTTGT` the fluorescence intensity was 87.7 a.u.
With `CCAGTGACAAGTCGGCACGTGAAGAAGCTAGAAGAC` the fluorescence intensity was 1080 a.u.
The fluorescence intensity of `CTTCTGTAAATTTGCGAAGTGGGTGGACGCGCCCCG` is reported as 68.3 a.u.
With `CTAACGAAGGTTTGTCACACTACTTACAAGCCAAGT` the fluorescence intensity was 94 a.u.
For `CGCCCGACGTCATTCCTCGTGATGGCTTCTGTTGTT`, the fluorescence intensity was 172 a.u.
`TCCGCACACAGAGGTTATGTGACGGTGGTAACCGTA` has a fluorescence intensity of 56.6 a.u.
With `CTAACGAAGGTTTGAATGGTGGGTGACAAGCCAAGT` the fluorescence intensity was 73.5 a.u.
With `TTACGGGACTTTTGTCATGCGGGCTGTCAAGCAGGC` the fluorescence intensity was 83.6 a.u.
`CTATTGGTATATGTGTCCGTGACAAAGTAGTTAGTG` gave a fluorescence intensity of 159 a.u.
`TGCGCAACAACTTGTCTGGTGGGTGTATGTCTAGAA` has a fluorescence intensity of 59.5 a.u.
With `CGGTAACATTTGAAACATGTGCCAGACTCCGAATGG` the fluorescence intensity was 214 a.u.

Series 2
Target: Histone acetyltransferase KAT6A, winged helix 2, GST fusion (KAT6A, Homo sapiens, UniProt Q92794, residues 85-181)
Technique: protein binding microarray
Molecule type: double-stranded DNA, one strand shown
Sample: in vitro
Tested at: not given
Setting: 8-mer, flanks averaged, mean of 2 arrays, mostly near background
Reference: not given
Reading: higher = stronger binding
Target sequence (chain): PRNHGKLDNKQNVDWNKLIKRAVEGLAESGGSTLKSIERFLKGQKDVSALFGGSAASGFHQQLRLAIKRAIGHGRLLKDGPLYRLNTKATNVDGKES
The E-score of `GGCAGAAA` is reported as 0.315.
`CCTAGCAC` has an E-score of -0.0259.
The E-score of `ACTATGTC` is reported as -0.196.
With `CACTTTGG` the E-score was 0.0818.
The E-score of `TCCATCCA` is reported as -0.125.
With `ACAGTCAT` the E-score was -0.24.
The E-score of `AGCGCCTC` is reported as -0.0146.
`CGGTGCAC` has an E-score of -0.0875.
For `ACAACACA`, the E-score was -0.0186.
`CGTATAAG` gave an E-score of -0.151.
`ACGGTCCG` gave an E-score of 0.0671.
`TCATATGA` has an E-score of -0.0459.
`AACCCCGT` has an E-score of -0.14.
With `GATCCTAA` the E-score was -0.196.
`CTACCAGA` gave an E-score of -0.000465.
`ACCTTATA` gave an E-score of 0.0226.
The E-score of `ATCGCGCC` is reported as 0.27.
The E-score of `ACTTAGTA` is reported as -0.0184.
With `ATCCGGGG` the E-score was 0.182.
`ACCCCCAC` has an E-score of -0.243.
With `CGCTACCA` the E-score was -0.101.
`ATGGTCCA` has an E-score of -0.0523.
`AAATCGCT` gave an E-score of -0.0703.
The E-score of `GACGATAC` is reported as 0.115.
The E-score of `TATAGGGA` is reported as -0.0861.

Series 3
Target: RNA binding protein fox-1 homolog 2, RRM domain, GST-SBP tag (RBFOX2, Homo sapiens, UniProt O43251-10, residues 100-194)
Technique: RNA Bind-n-Seq
Molecule type: RNA
Sample: in vitro
Tested at: 365 nM
Setting: natural RNA segment, single round, ends assumed
Reference: no-protein control
Reading: higher = stronger binding
Shared flanks, not repeated: GGGAGUUCUACAGUCCGACGAUC … UGGAAUUCUCGGGUGCCAA
Residues (chain): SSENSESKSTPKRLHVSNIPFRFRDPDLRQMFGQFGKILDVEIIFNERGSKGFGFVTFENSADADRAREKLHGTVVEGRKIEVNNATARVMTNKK
`GACUGACUUUCUUACAAAAUGCAUUUGGAAACCAGACCUUUGCUACCCACCAAUGUCUCUGGGUUUUGUACCAGUCCCUGCUCUCAGGCCACCCUGCCCAGGACCCAGGC`: “RBNS enrichment (R)” 0.981.
For `GAGCAGCACAAAUAACCUGGAGUUGUUUGGCCUUGGUUCCUUAAGUCCUGUGUUCAAGACACUGAAGCUAUCUCCCAUGUUCUGUGUGAGAUUUCUGAGUAAGAUCUGGC`, “RBNS enrichment (R)” read 0.333.
`CUCAUUUGGUUUGAUUUUCCCUCUACUAAGGCUUUCCUACCUUCUUCAGGCUGCCUAAGACAUGUAACGAAACACUUCAAUAAUUGUCCAUGAGGAGAAAAAAAGCAUGU` — result for “RBNS enrichment (R)”: 0.934.
For `GGUGUUGUCCAAGCUGCGCAUCGGUGCACAGUGUGGCCUGGCACACACGCAGGCGGGCGACGGAACUUGAAGGGUUAUUGACAUGCAAAUGCUGGUGUUUGAUUUCCUGU`, “RBNS enrichment (R)” read 1.51.
Under “RBNS enrichment (R)”, `GGGAAAGGGCUUUAUUCUUAUAAGAGUCUGGCCUGUCUUAACUAGAAGACGGGUAGGAAGGAUACUAGGUAGGCAGCGUUGCUGAACAAUCUAAGUUGUGGUUCUUAGCC` is recorded as 0.234.
`GGAAACAGUACUGAGGGCAAAGUUUACAGAUGUUUUUGAUUCUGGCAUUUUGUCCAGAACAGCUUGUAGCAGCUAUAGAUUCCCCCUUGGCCCCAAGCCUGGGACUUGAG` — result for “RBNS enrichment (R)”: 0.755.
Under “RBNS enrichment (R)”, `UGAGAGAAAUUUUAAAAAGUCUCUAUUUAAAUUCUUUUUUUAAAUUUCUCUUCAGUUGGUGUGUUUCCGGGAUGUCUUAUUUUUAGAUGGUUACACUGUUAGAACACUAU` is recorded as 0.454.
Under “RBNS enrichment (R)”, `GUGGAGCGGAAAAGCAGGUUGGUAAAGUUCCCUUCUUGGGACUUAUUCCUGGAGUCAGUGGAUACAAGUAGUGCAGAAGGUUCACACUGCAAAUAGUGUUCUCAUCUCAA` is recorded as 0.555.

Series 4
Target: RING finger protein unkempt homolog, zinc fingers 1-6, SBP tag (UNK, Homo sapiens, UniProt Q9C0B0, residues 30-357)
Sequence of UniProt Q9C0B0 (30-357, looked up): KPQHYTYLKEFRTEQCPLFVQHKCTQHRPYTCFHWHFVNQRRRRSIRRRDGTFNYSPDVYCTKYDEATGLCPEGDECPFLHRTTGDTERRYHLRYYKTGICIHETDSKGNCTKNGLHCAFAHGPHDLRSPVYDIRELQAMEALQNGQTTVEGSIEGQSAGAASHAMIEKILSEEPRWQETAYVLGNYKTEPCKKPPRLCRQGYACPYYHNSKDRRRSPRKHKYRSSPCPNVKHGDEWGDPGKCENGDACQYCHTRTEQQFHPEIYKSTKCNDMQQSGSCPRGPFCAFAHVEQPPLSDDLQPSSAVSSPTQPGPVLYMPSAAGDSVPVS
Technique: RNA Bind-n-Seq
Molecule type: RNA
Sample: in vitro
Tested at: 100 nM
Setting: RNA with constant flanks, vertebrate orthologous sites, ends assumed
Reference: input RNA pool
Reading: higher = stronger binding
Shared flanks, not repeated: GGGAGUUCUACAGUCCGACGAUC … CAACAGAGGAUUGAGCAUCA
The bound/input enrichment of `UCCCAGCACUUCGAUAAAAAGUGUGGACUGGUUGCUUGUAUUUUCCUUAUUCUUUUUAAUUAGCUUUAUUAUGUAUGCUACUAUUCGAACUGAGAGCAUUCGGUGGCUAAUUCCAGGACA` is reported as 0.8 ratio.
`CACAUCCGGUGAUAUUUGGCCAGGCCUUUCAGCUUAUGAUAAUAGUCCUAGAUCACCCCAUAGUCCUUCACCUAUUGCUACACCACCUAGUCAGAGUUCAUCUUGCUCUGAUGCCCCUAU` has a bound/input enrichment of 1.26 ratio.
For `CAGGGUAUACCUGUGGGGCACUGCUGGCCGCUUAUUGUUGUUUAAUUUGUGACCUUGACAUUCUAGAUAGGCUUUUUUUUUUUAAUUUAAAGAUAGUAAGACCUAAUUCACUAAAAUUUA`, the bound/input enrichment was 0.824 ratio.
With `ACCUAAUGUCCACUGCUAAGCCAACAAUCCUAGAGCUCUGUGUGUGUGUAGUUUUGUAUAUAGUAAUGCCAACCUCGUUGCUGAAUGUUACAUCUGGAGGAGAAACGGGUUCGAGCCUGA` the bound/input enrichment was 0.786 ratio.
`AUAUUGGAUGUAGUGUAAAAUUAUCCAAGGCAGUGACUUCAGCUUCAUAUAUAUAUAAUAUAGUUAGUUUUAAAGCUAUUGACGUUUAUUUAAACUUUUAGAUGGGACUGUUUGCUAUUU` has a bound/input enrichment of 1.07 ratio.
The bound/input enrichment of `GGGCCGCAGGUGGGGUAAUUACAUGCCCUAGCCUUGCCUCCCCUUCCUGUCACCGGCUCCUAGUUAUUUUUUUUUUAACCACCACGUGAUUAAGGUCGGAGCUGCCUCCUCCCGACCCGC` is reported as 1.03 ratio.
`UAUUUUCUUAUUUUAGGUAUCAUUGCCCAGUGCCUAAGAUCUUUUACGUUCAGCUCACUGUAGGAAAUAAUGAAUUUUUUGGGGAAGGAAAGACUCGACAAGCUGCUAGACACAAUGCUG` has a bound/input enrichment of 1.4 ratio.
`UGUUUUCUUAUUUUAGGUAUCAUUGCCCAGUGCCUAAGAUCUUUUAUGUUCAGCUGACUGUAGGAAAUAAUGAAUUUUUUGGUGAAGGGAAGACUCGACAAGCUGCAAGACACAAUGCUG` has a bound/input enrichment of 0.956 ratio.

Excerpt of the above (series 2):
`TCATATGA` has an E-score of -0.0459.
`CGTATAAG` gave an E-score of -0.151.
The E-score of `ACTTAGTA` is reported as -0.0184.
The E-score of `TCCATCCA` is reported as -0.125.
`CGGTGCAC` has an E-score of -0.0875.
The E-score of `AGCGCCTC` is reported as -0.0146.
The E-score of `GACGATAC` is reported as 0.115.
`ATGGTCCA` has an E-score of -0.0523.
The E-score of `ATCGCGCC` is reported as 0.27.
